Measurements pooled from the literature.
Each line is one published result; not all experiments were run side by side. Numbers after ± are the reported error.

SMILES	test	test system	conditions	AUC(0-24 h)
N#CCC1CCN(c2nc(Nc3ccc(N4CCC(O)CC4)cc3)c3c(=O)[nH]ncc3n2)CC1		human, plasma	oral, 20 mg once daily, day 15	850 ng·h/mL
Cc1cc2nc3c(=O)[nH]c(=O)nc-3n(C[C@H](O)[C@H](O)[C@H](O)CO)c2cc1C		human, plasma	oral, dose not given, day 7, together with: rosuvastatin	147 ng·h/mL
Cl.[2H]C([2H])([2H])CC(=O)c1cnc(NC(=O)C2CC2)cc1Nc1cccc(-c2ncn(C([2H])([2H])[2H])n2)c1OC	geometric mean	human	oral, 25 mg single dose, fasted, liquid	1870 ng·h/mL
C#Cc1cccc(Nc2ncnc3cc(OCCOC)c(OCCOC)cc23)c1		human, plasma	oral, 100 mg daily, day 8, together with: docetaxel	45.5 ± 23.7 µM·h
CC1=C(c2cccc(O)c2)[C@H](c2ccc(OCCN3CC(CF)C3)cc2)Oc2ccc(O)cc21		human, plasma	oral, 600 mg once daily, steady state geometric mean	1130 ng·h/mL
Cn1nc2c(=O)n(C3CC3)cnc2c1[C@](O)(c1cnc(C(F)(F)F)c(Cl)c1)C(F)(F)F		humanized SCID mice, blood	30 mg/kg once daily, 6 days, infected	226 µM·h
CC(C)(Sc1ccncc1-c1ccc(C#N)c2ccccc12)C(=O)O		human, plasma	oral, 5 mg once daily, geometric mean, together with: febuxostat 20 mg	106 ng·h/mL
COc1cnc(C(=O)Nc2ccc(F)c([C@]34CN(c5ncc(F)cn5)C[C@H]3CSC(N)=N4)c2)cn1		human, CSF	single dose, 26 mg, geometric mean	8.53 ng·h/mL
O=C(NO)c1ccc(CN(c2cnccn2)c2cnccn2)cc1		human patients, plasma	oral, 800 mg twice daily, day 15, approximate mean	~11000 ng·h/mL

A few entries again:
SMILES	test	test system	conditions	AUC(0-24 h)
Cc1cc2nc3c(=O)[nH]c(=O)nc-3n(C[C@H](O)[C@H](O)[C@H](O)CO)c2cc1C		human, plasma	oral, dose not given, day 7, together with: rosuvastatin	147 ng·h/mL
